Experimental data pooled from the literature.
Compare with care: the assays were run in different laboratories. Several values in a cell are separate wells, animals, samples, runs or records. Numbers after ± are the reported error.
Organism: Plasmodium falciparum

`Cl.O[C@]12C=C(c3nccc4c3[nH]c3ccccc34)[C@@H]3CCN(CCCC/C=C\CC1)C[C@@]31C[C@@H]3/C=C\CCCCN3[C@H]12` gave a selectivity index of 59 (W2, chloroquine-resistant; reference: Vero IC50 over W2 IC50).
Under growth inhibition, `CC(C)C[C@@H](CC(=O)N[C@@H](CCCN)CC(=O)N[C@@H]1CCNC[C@H]1C(=O)N[C@H](CC(=O)N[C@@H](CCC(=O)O)CC(=O)O)CC(C)C)NC(=O)[C@@H]1CCCC[C@H]1N` is recorded as “inactive” (SYBR Green; FVO; concentration not given, 36 h).
`CP(=O)(O)CCCN` gave an IC50 of 2.51 µM (W2).
The resistance index of `CC1(C)N=C(N)N=C(N)N1c1ccc(Cl)cc1` is reported as 140 (growth, [3H]-hypoxanthine uptake; FCR3; 96 h; reference: FCR3 IC50 over 3D7 IC50).
`O=C(c1ccc(Cl)cc1)N1CCCC(C(=O)N(Cc2nnc(-c3ccccc3Cl)o2)C2CC2)C1` (stereo not shown) has an EC50 of 119 ± 27 nM (parasite growth, SYBR Green; 3D7 wild type; 72 h).
`COc1ccccc1N1CCN(CCCCNC(=O)c2ccc3ccccc3c2)CC1` has an IC50 of 3.98 µM (HB3).
`CC(C)[C@@H](CC(=O)N[C@@H]1CCCC[C@H]1C(=O)N[C@H](CC(=O)N[C@@H](CCC(=O)O)CC(=O)O)Cc1ccccc1)NC(=O)C[C@H](CO)NC(=O)[C@@H]1CNCC[C@H]1N` — result for growth inhibition: “inactive” (SYBR Green; FVO; concentration not given, 36 h).
`O=C(CCCN1CC=C(n2c(=O)[nH]c3ccccc32)CC1)c1ccc(F)cc1` gave an IC50 of 6.31 µM (GB4).
For `Cn1nc2c(=O)n(C3CC3)cnc2c1[C@](O)(c1cnc(C(F)(F)F)c(Cl)c1)C(F)(F)F`, “average blood concentration at ED90” read under 0.32 µM (Pf3D7^0087/N9, mouse, blood; dose not given, 96 h).
With `COCC(=O)N1CCC[C@H](C(=O)NCc2nc(-c3ccccc3)cs2)C1` the EC50 was 2700 ± 170 nM (Dd2 β3 R190S resistant).
`OC(c1cc(C(F)(F)F)nc2c(C(F)(F)F)cccc12)C1CCCCN1` (stereo not shown) has an EC50 of 16.3 ± 6.4 nM (parasite growth).
`Oc1ccc2c3c1O[C@H]1c4[nH]c5c(c4C[C@@]4(O)[C@@H](C2)N(CC2CC2)CC[C@]314)C[C@@]1(O)[C@H]2Cc3ccc(O)c4c3[C@@]1(CCN2CC1CC1)[C@H]5O4` has a merozoite invasion of 100% (FVO, purified merozoites, erythrocytes; 25 µM).
`CCN1CCN(Cc2ccc(Nc3nc4ccc(Oc5ccnc(NC(=O)C6CCN(C)CC6)c5)cc4n3C)cc2C(F)(F)F)CC1` — result for hemozoin level: “decreased” (heme fractionation; 3D7; multiples of EC50).
With `Cc1cc(Nc2ccc(S(F)(F)(F)(F)F)cc2)n2nc(C(C)(F)F)nc2n1` the EC50 was 6.8 ± 1.4 nM (Dd2 β5 S27F resistant).
The resistance index of `CCN(CC)CCCC(C)Nc1ccnc2cc(Cl)ccc12` (stereo not shown) is reported as 3.3 (growth, [3H]-hypoxanthine uptake; Dd2; 72 h; reference: Dd2 IC50 over 3D7 IC50).
`CC1=C(C)C(=O)C(CCCCC#CCCCC#CCO)=C(C)C1=O` gave an IC50 of 2 µM (7G8).
`CC(C)C[C@H](NC(=O)[C@H](Cc1c[nH]c2ccccc12)NC(=O)CN1CCOCC1)C(=O)N[C@H](/C=C/S(C)(=O)=O)Cc1c[nH]c2ccccc12` gave an EC50 of 9.6 ± 0.88 nM (Dd2 β5 S28L resistant).
For `O=C(Nc1cccc(Cl)c1Cl)Nc1ccnc2ccccc12`, the EC50 ratio was 2.7 (parasite growth, SYBR Green; 72 h; reference: 3D7-E182D over 3D7).
`CCc1nnc(-c2ccc3ccn(CC(=O)Nc4cc(OC)c(OC)c(OC)c4)c3c2)o1`: “EC50 fold shift” 2 fold (7G8; reference: 7G8 over 3D7).
`Fc1ccc([C@@H]2CCNC[C@H]2COc2ccc3c(c2)OCO3)cc1` gave an IC50 of 6.31 µM (3D7).
Under “EC50 fold shift”, `Cc1ccc(N(c2ccc(NC(=O)CN(C)c3ccccc3N3CCCC3=O)cc2)C(C)C)cc1` is recorded as about 650 fold (SYBR Green; Dd2 CSC1 L800P mutant; 72 h; reference: mutant over parental Dd2).
Under “break point of parasite clearance”, `O=C(NCCN1CCCC1)c1cc(-c2ccc(CN3CCOCC3)cc2)nc2ccc(F)cc12` is recorded as 54.6 h and 55.7 h and 48 h and 66.7 h and 80 h and 43.2 h and 54.7 h and 81.1 h (18S rRNA qPCR; human; 400 mg).
For `OCCN1CCN(CC/C=C2/c3ccccc3Sc3ccc(C(F)(F)F)cc32)CC1`, the IC50 was 2 µM (GB4).
`CCc1nc2nc(C)cc(Nc3cc(C)cc(C)c3)n2n1` gave an EC50 of 193 ± 78 nM (parasite growth, SYBR Green; 3D7 wild type; 72 h).
With `Fc1ccc(C(OCCCc2c[nH]cn2)c2ccc(F)cc2)cc1` the IC50 was 3.98 µM (D10).
For `Cn1cc(-c2ccc3ccn(CC(=O)Nc4ccccc4Cl)c3c2)cn1`, “EC50 fold shift” read 2 fold (7G8; reference: 7G8 over 3D7).
For `c1cc([C@H]2CC[C@]3(CC2)OO[C@]2(O3)C3CC4CC(C3)CC2C4)ccc1OCCN1CCOCC1`, “lag phase duration” read 6 h (human patients, malaria; oral, 1200 mg).
For `CN(C)CCCN1c2ccccc2C(C)(C)c2ccccc21`, the merozoite invasion was 23% (FVO, purified merozoites, erythrocytes; 50 µM).
With `C[C@@H]1CC[C@H]2[C@@H](C)C(=O)O[C@@H]3O[C@@]4(C)CC[C@@H]1[C@]32OO4` the resistance index was 1.02 (reference: IC50 Dd2 over IC50 3D7).
For `COc1ccc(-c2ccc(CNC(=O)c3cc(C(=O)NC(C)C)ccc3Cl)cc2)cn1`, “sorbitol lysis protection” read “decreased” (PSAC-resistant lines; concentration not given; reference: parental 3D7A).
`Cc1cc(Nc2ccc(C(C)(C)C)cc2)c2[nH]ncc2n1` gave an EC50 of 2010 ± 180 nM (parasite growth, SYBR Green; 3D7 DHODH E182D; 72 h).
The merozoite invasion of `CN(Cc1ccco1)c1ncnc2ccc(-c3ccoc3)cc12` is reported as 95% (FVO, purified merozoites, erythrocytes; 25 µM).
With `C[C@H]1[C@@H](O)O[C@@H]2O[C@@]3(C)CC[C@H]4[C@H](C)CC[C@@H]1[C@@]24OO3` the parasite survival was 18.9% (ring-stage survival; 6320; 700 nM, 6 h).
`O=C(NC1CC1)c1ccc(N2CCOc3ccc(Cl)cc32)s1` has an EC50 of 3870 ± 380 nM (parasite growth, SYBR Green; 3D7 DHODH E182D; 72 h).
With `Cc1nnc(-c2ccc3ccn(CC(=O)Nc4ccccc4Cl)c3c2)o1` the EC50 shift was about 2 fold (parasite growth; Dd2 PfATP4 F156L; reference: parental Dd2).
The EC50 ratio of `CC(=O)Nc1sc(C)c(C)c1CN1CCc2ccccc2C1` is reported as 2.6 (parasite growth, SYBR Green; 72 h; reference: 3D7-E182D over 3D7).
`Cc1nc(-c2ccc(OCC(C)C)c(C#N)c2)sc1C(=O)O` gave a merozoite invasion of 100% (FVO, purified merozoites, erythrocytes; 25 µM).
`Cn1nc(C(=O)N2CCC(c3[nH]ncc3Cc3ccccc3)CC2)c2ccccc2c1=O` gave an EC50 ratio of 3.3 (parasite growth, SYBR Green; 72 h; reference: 3D7-E182D over 3D7).
With `C[C@H]1c2cccc(O)c2C(=O)C2=C(O)[C@]3(O)C(=O)C(C(N)=O)=C(O)[C@@H](N(C)C)[C@@H]3[C@@H](O)[C@@H]21` the IC50 was 6.31 µM (GB4).
`CNc1ccccc1-c1cc2c(cc1CO)OCO2` — result for activity class: “inactive” (parasite growth; concentration not given).

Some of these lines once more:
`CCc1nc2nc(C)cc(Nc3cc(C)cc(C)c3)n2n1` gave an EC50 of 193 ± 78 nM (parasite growth, SYBR Green; 3D7 wild type; 72 h).
With `Fc1ccc(C(OCCCc2c[nH]cn2)c2ccc(F)cc2)cc1` the IC50 was 3.98 µM (D10).
For `Cn1cc(-c2ccc3ccn(CC(=O)Nc4ccccc4Cl)c3c2)cn1`, “EC50 fold shift” read 2 fold (7G8; reference: 7G8 over 3D7).
For `c1cc([C@H]2CC[C@]3(CC2)OO[C@]2(O3)C3CC4CC(C3)CC2C4)ccc1OCCN1CCOCC1`, “lag phase duration” read 6 h (human patients, malaria; oral, 1200 mg).
For `CN(C)CCCN1c2ccccc2C(C)(C)c2ccccc21`, the merozoite invasion was 23% (FVO, purified merozoites, erythrocytes; 50 µM).
